Experimental data pooled from the literature.
Compare with care: the assays were run in different laboratories. Several values in a cell are separate wells, animals, samples, runs or records.
Cell line: SF-539

Compound	test	test system	conditions	how to read	endpoint	result
CCOC(=O)CSc1nc(-c2ccc(Cl)cc2)c2c(NC(=O)c3ccccc3)nnc-2[nH]1	SRB	–	10 µM, NCI60 single-dose screen	relative to: untreated	cell growth	94%
CCN(CC)c1ccc(C=NNC(=O)CSc2nc3ccccc3c(=O)n2Cc2ccc(S(N)(=O)=O)cc2)c(O)c1	NCI five-dose screen	–	–	–	TGI	> 100 µM
Cc1cc(-c2ccccc2)n(-c2nc(-c3ccc(Cl)cc3)c3c(NC(=O)c4ccccc4)nnc-3[nH]2)n1	SRB	–	10 µM, NCI60 single-dose screen	relative to: untreated	cell growth	94.7%
C#C[C@@]1(O)[C@@H](CO)O[C@@H](n2cc(Cl)c3c(N)ncnc32)[C@@H]1O	SRB	–	NCI-60 screen	–	TGI	1.3 µM and 1.61 µM
CC(=O)O[C@H]1C(=O)[C@@]2(C)[C@H]([C@H](OC(=O)c3ccccc3)[C@]3(O)C[C@H](OC(=O)[C@H](O)[C@@H](NC(=O)c4ccccc4)c4ccccc4)C(C)=C1C3(C)C)[C@]1(OC(C)=O)CO[C@@H]1C[C@@H]2O	sulforhodamine B	CNS cancer	NCI60 screen	–	TGI	0.06 µM
CCCCN1CCN(c2ccc3[nH]c(-c4ccc5[nH]c(-c6cc(OC)c(OC)c(OC)c6)nc5c4)nc3c2)CC1	SRB	–	10 µM, 48 h	–	growth percent	61.1%
C#C[C@@]1(O)[C@@H](CO)O[C@@H](n2cc(Br)c3c(N)ncnc32)[C@@H]1O	SRB	–	NCI-60 screen	–	TGI	2.04 µM and 1.14 µM
CN1CCN(c2ccc3[nH]c(-c4ccc5[nH]c(-c6ccc(C(F)(F)F)cc6)nc5c4)nc3c2)CC1	SRB	–	10 µM, 48 h	–	growth percent	47.2%
Cc1cc(=O)[nH]n1-c1nc(-c2ccc(Cl)cc2)c2c(NC(=O)c3ccccc3)nnc-2[nH]1	SRB	–	10 µM, NCI60 single-dose screen	relative to: untreated	cell growth	92.9%
C#C[C@@]1(O)[C@@H](CO)O[C@@H](n2cc(F)c3c(N)ncnc32)[C@@H]1O	SRB	–	NCI-60 screen	–	TGI	5.29 µM
CCCCN1CCN(c2ccc3[nH]c(-c4ccc5[nH]c(-c6ccc(OCC)c(OCC)c6)nc5c4)nc3c2)CC1	SRB	–	10 µM, 48 h	–	growth percent	-93.7%
Cn1cncc1C1=CN(c2ncnc3[nH]cnc23)CCS1	–	–	CNS cancer	–	TGI	40.7 µM
Cc1cc(C)n(-c2nc(-c3ccc(Cl)cc3)c3c(NC(=O)c4ccccc4)nnc-3[nH]2)n1	SRB	–	10 µM, NCI60 single-dose screen	relative to: untreated	cell growth	87.7%
CCCCN1CCN(c2ccc3[nH]c(-c4ccc5[nH]c(-c6ccc(C(F)(F)F)cc6)nc5c4)nc3c2)CC1	SRB	–	10 µM, 48 h	–	growth percent	-92.8%
O=C1NCCc2[nH]c(-c3ccncc3)cc21	MTS	–	NCI60 panel	–	IC50	3.68 µM
S=C([S][Au-][P+](CCCCCC[P+]([Au-][S]C(=S)n1cccn1)(c1ccccc1)c1ccccc1)(c1ccccc1)c1ccccc1)n1cccn1	cell growth, NCI-60 screen	–	CNS cancer	–	log10 TGI	-4.32

Some of these lines once more:
Compound	test	test system	conditions	how to read	endpoint	result
CCN(CC)c1ccc(C=NNC(=O)CSc2nc3ccccc3c(=O)n2Cc2ccc(S(N)(=O)=O)cc2)c(O)c1	NCI five-dose screen	–	–	–	TGI	> 100 µM
